Assay results from different studies.
A part holds a random share of what one study measured. Values joined by “and” are separate records of one study, mostly repeats; a detail may differ.
UniProt Q06609, sequence (whole entry, looked up): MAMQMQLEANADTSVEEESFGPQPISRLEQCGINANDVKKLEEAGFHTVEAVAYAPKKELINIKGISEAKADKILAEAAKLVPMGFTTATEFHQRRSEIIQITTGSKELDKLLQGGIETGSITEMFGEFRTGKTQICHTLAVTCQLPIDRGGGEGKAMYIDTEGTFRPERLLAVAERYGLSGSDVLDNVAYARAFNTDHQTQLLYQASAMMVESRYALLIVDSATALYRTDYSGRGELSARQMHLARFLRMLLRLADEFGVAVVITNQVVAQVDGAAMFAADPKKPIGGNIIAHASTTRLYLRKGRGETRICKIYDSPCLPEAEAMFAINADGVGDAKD
UniProt P27361, sequence (whole entry, looked up): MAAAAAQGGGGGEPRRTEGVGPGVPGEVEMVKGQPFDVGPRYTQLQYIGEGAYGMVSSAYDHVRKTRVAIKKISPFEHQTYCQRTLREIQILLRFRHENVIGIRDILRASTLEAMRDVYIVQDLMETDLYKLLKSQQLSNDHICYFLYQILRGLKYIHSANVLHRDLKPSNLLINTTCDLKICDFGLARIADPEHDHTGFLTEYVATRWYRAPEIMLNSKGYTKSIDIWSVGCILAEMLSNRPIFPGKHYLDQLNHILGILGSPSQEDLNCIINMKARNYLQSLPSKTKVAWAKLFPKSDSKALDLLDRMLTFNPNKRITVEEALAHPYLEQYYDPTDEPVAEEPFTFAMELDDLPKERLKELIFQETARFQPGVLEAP
UniProt Q9P286, sequence (whole entry, looked up): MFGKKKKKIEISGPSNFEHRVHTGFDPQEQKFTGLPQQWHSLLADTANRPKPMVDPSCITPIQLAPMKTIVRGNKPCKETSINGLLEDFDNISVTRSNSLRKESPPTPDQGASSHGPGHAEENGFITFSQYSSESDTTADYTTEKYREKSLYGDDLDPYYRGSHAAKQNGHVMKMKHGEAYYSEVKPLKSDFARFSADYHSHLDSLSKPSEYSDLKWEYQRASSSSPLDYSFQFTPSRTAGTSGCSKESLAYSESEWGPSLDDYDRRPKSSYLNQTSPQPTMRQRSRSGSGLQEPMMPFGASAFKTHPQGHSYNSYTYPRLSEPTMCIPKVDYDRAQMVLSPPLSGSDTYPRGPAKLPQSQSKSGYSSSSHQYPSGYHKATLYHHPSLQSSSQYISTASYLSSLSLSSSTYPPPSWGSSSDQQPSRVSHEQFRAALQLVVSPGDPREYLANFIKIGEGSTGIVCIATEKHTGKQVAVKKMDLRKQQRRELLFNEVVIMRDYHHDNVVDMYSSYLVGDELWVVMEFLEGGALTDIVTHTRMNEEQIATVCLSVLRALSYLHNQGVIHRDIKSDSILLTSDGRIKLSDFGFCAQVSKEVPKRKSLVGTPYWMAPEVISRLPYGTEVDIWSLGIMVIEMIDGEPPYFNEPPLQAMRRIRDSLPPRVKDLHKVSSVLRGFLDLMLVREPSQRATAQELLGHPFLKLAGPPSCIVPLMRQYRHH
UniProt Q99640, sequence (whole entry, looked up): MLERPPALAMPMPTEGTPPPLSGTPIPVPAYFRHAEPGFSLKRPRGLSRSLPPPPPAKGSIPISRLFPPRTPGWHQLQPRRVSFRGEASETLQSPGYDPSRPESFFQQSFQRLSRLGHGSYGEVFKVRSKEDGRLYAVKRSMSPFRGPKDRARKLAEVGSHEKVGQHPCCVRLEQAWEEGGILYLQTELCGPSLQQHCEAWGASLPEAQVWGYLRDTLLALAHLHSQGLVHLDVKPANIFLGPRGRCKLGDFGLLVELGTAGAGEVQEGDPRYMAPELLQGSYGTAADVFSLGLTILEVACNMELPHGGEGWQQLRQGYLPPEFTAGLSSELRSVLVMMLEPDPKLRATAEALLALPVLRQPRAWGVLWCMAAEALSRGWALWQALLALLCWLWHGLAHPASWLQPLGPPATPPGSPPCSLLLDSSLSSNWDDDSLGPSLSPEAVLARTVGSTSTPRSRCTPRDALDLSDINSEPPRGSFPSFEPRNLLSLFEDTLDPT

Study 1 — read-out: enzyme activity; action: inhibitor; tested at: 0.5 µM; relative to: control
Target: Cyclin-dependent kinase 4, with cyclin D3 (CDK4, Homo sapiens, UniProt P11802)
UniProt P11802, sequence (whole entry, looked up): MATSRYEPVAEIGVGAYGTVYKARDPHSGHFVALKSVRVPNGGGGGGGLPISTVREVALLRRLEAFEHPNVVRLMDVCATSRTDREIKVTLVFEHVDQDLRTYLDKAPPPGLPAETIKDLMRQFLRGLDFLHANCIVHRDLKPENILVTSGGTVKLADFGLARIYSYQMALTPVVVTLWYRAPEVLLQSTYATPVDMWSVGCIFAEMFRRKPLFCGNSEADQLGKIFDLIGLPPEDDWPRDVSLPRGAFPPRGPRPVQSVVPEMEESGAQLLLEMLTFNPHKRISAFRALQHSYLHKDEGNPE
| SMILES | remaining activity [%] |
| --- | --- |
| CNC(=O)c1cc(Oc2ccc(NC(=O)Nc3ccc(Cl)c(C(F)(F)F)c3)cc2)ccn1 | 114 |
| O=C1NC(=O)C(c2cn(CCCO)c3ncccc23)=C1c1cnccn1 | 95.9 |
| COc1cc2ncnc(Nc3ccc(Oc4ccccc4)cc3)c2cc1OC | 98.4 |
| O=C(Nc1cccc(Nc2cc(Nc3cccc(C(F)(F)F)c3)ncn2)c1)C1CC1 | 105 |
| COc1ccc(CNC(=O)Nc2ncc([N+](=O)[O-])s2)cc1 | 94.4 |
| N#CC(C#N)=C(N)/C(C#N)=C/c1ccc(O)cc1 | 97.1 |
| Cc1ccc(Nc2nccc(N(C)c3ccc4c(C)n(C)nc4c3)n2)cc1S(N)(=O)=O | 96 |
| OCC(O)CCON=C1C(c2c(O)[nH]c3ccccc23)=Nc2ccccc21 (stereo not shown) | 66.1 |
| O=C(CCCc1ccc(-c2ccccc2F)cc1)Nc1ccc(O)cc1 | 110 |
| COc1cc2ncnc(Nc3ccc(F)c(Cl)c3)c2cc1OCCCN1CCOCC1 | 101 |
| O=C1NC(=O)C(c2cn(CCCn3ccnc3)c3ccccc23)=C1Nc1ccccc1 | 91 |
| O=C(O)c1ccc2c3c1cccc3c(=O)n1c3ccccc3nc21 | 102 |
| COc1ccc(C(=O)Nc2sc3c(c2C(N)=O)CCCC3)cc1OC | 98.8 |
| Cn1sc(=O)n(Cc2ccccc2)c1=O | 114 |
| O=S(=O)(c1cccc2cnccc12)N1CCCNCC1 | 98.5 |

Study 2 — read-out: ATPase activity; method: ADP-Glo; relative to: DMSO; CHD1: CHD1 (Homo sapiens, UniProt O14646)
UniProt O14646, sequence (whole entry, looked up): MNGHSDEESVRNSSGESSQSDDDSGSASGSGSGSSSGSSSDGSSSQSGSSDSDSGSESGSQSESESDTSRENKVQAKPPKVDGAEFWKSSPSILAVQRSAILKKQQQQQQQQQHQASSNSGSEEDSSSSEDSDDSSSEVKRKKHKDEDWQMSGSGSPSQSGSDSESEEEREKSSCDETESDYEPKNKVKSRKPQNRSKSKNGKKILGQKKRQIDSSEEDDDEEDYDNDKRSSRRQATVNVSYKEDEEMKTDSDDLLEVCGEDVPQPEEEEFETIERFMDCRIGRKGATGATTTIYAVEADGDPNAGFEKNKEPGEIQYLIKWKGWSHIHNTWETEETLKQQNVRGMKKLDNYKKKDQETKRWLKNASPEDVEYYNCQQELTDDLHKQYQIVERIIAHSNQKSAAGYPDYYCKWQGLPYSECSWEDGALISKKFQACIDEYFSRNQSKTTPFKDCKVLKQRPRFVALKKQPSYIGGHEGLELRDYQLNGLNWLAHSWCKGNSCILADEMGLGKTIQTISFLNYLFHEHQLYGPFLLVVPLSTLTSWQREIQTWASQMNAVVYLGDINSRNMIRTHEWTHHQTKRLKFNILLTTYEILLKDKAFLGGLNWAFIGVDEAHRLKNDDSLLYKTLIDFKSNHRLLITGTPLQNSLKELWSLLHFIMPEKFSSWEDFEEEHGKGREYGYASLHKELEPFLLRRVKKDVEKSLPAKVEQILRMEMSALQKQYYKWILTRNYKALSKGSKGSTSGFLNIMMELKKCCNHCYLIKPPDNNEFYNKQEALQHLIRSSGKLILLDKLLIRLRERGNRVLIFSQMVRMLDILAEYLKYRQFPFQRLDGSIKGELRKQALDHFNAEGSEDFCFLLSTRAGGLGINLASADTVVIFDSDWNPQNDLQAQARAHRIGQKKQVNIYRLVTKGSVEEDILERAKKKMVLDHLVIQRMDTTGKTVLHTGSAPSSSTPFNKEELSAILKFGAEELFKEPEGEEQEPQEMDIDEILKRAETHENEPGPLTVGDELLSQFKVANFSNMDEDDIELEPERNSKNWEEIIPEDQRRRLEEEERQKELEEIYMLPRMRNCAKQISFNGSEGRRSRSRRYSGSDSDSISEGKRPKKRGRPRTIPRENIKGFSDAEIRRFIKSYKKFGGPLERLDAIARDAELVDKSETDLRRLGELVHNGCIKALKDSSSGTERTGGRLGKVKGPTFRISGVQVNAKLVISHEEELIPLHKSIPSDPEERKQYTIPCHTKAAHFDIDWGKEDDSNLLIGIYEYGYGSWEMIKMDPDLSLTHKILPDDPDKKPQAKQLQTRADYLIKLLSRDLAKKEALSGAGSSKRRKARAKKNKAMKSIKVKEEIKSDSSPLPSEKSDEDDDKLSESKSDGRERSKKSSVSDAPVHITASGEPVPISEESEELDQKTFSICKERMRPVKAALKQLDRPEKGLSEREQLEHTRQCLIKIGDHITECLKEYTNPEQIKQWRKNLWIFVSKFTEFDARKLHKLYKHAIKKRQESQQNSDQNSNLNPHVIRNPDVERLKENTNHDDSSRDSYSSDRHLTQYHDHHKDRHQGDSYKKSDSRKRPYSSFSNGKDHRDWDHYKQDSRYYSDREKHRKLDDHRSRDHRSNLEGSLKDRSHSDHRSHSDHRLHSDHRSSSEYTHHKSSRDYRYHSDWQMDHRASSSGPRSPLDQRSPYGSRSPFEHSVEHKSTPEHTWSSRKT
Structure (SMILES): CO[C@@H]1[C@@H](OC(N)=O)[C@@H](O)[C@H](Oc2ccc3c(O)c(NC(=O)c4ccc(O)c(CC=C(C)C)c4)c(=O)oc3c2C)OC1(C)C
HSP90AA1: Heat shock protein HSP 90-alpha (HSP90AA1, Homo sapiens, UniProt P07900)
| target | tested at | remaining activity |
| --- | --- | --- |
| CHD1 | 25 µM | 99.6% and 96.2% and 96.6% and 86.9% and 97.2% and 88.7% |
| HSP90AA1 | 100 µM | 98.5% and 78.2% and 94% and 105% and 99.7% and 95.8% |
| CHD1 | 100 µM | 67% and 68.6% and 70.3% and 87% and 80.5% and 88.7% |
| DNA repair protein RAD51 homolog 1 (RAD51, Homo sapiens, UniProt Q06609) | 50 µM | 91.5% and 87.5% and 93.6% and 87.7% and 96.2% and 99.4% |
| HSP90AA1 | 25 µM | 106% and 117% and 95.8% and 110% and 103% and 107% |

Study 3 — read-out: cell-free assay; method: competition with immobilised ligand; tested at: 1 µM
SMILES: CN(C(=O)c1ccccc1)c1cc(N(C)c2ccc3c(c2)CCc2ccc(C(=O)NCCN4CCOCC4)cc2C3=O)ccc1F
| target | remaining binding [%] |
| --- | --- |
| Cyclin-dependent kinase 4 (CDK4, Homo sapiens, UniProt P11802) | 91 |
| Serine/threonine-protein kinase PAK 5 (PAK5, Homo sapiens, UniProt Q9P286) | 95 |
| Membrane-associated tyrosine- and threonine-specific cdc2-inhibitory kinase (PKMYT1, Homo sapiens, UniProt Q99640) | 87 |
| Tyrosine-protein kinase ABL1, non-phosphorylated (ABL1, Homo sapiens, UniProt P00519, T315I) | 88 |
| Mitogen-activated protein kinase 3 (MAPK3, Homo sapiens, UniProt P27361) | 88 |

Study 4 — read-out: enzyme activity; action: inhibitor; tested at: 10 µM
Target: Calcium/calmodulin-dependent protein kinase type II subunit alpha (CAMK2A, Homo sapiens, UniProt Q9UQM7)
UniProt Q9UQM7, sequence (whole entry, looked up): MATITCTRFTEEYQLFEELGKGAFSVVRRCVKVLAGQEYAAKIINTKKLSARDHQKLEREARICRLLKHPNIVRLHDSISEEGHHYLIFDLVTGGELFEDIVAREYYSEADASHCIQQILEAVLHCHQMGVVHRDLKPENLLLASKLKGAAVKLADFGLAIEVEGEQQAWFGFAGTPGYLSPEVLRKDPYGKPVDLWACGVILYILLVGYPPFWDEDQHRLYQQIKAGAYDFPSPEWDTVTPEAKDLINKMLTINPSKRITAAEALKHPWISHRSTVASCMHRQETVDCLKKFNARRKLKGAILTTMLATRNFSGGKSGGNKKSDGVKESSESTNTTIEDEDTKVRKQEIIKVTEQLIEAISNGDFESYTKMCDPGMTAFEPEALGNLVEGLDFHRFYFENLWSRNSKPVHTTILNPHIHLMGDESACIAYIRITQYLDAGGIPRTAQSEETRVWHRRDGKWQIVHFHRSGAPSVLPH
| Compound | inhibition [%] |
| --- | --- |
| COc1c(O[C@@H]2O[C@H](CO)[C@@H](O)[C@H](O)[C@H]2O)cc2occ(-c3ccc(O)cc3)c(=O)c2c1O | -25 |
| C[C@@H](O)[C@@H]1NC(=O)[C@@H](N)C[C@@H](O)[C@@H](O)NC(=O)[C@@H]2[C@@H](O)[C@@H](C)CN2C(=O)[C@H]([C@H](O)CC(N)=O)NC(=O)[C@H]([C@H](O)[C@@H](O)c2ccc(O)c(OS(=O)(=O)O)c2)NC(=O)[C@@H]2C[C@@H](O)CN2C1=O | -29 |
| CCCCCCCCCCCCCCCCC(C(=O)O)C(O)(CC(=O)O)C(=O)O (stereo not shown) | -40 |
| COc1cc2oc(-c3ccc(O)cc3)cc(=O)c2c(O)c1[C@@H]1O[C@H](CO)[C@@H](O)[C@H](O)[C@H]1O[C@@H]1O[C@H](CO)[C@@H](O)[C@H](O)[C@H]1O | 12 |
| N[C@@H]1c2cccnc2[C@H](OC(=O)N2CCC(n3c(=O)[nH]c4ncccc43)CC2)CC[C@H]1c1cccc(F)c1F | 1 |
| COc1ccc2ccc(=O)oc2c1C[C@@H]1OC1(C)C | 49 |

A few entries again (study 1):
| SMILES | remaining activity [%] |
| --- | --- |
| O=C(O)c1ccc2c3c1cccc3c(=O)n1c3ccccc3nc21 | 102 |
| COc1ccc(C(=O)Nc2sc3c(c2C(N)=O)CCCC3)cc1OC | 98.8 |
| Cn1sc(=O)n(Cc2ccccc2)c1=O | 114 |
